Measured values collected from several papers.

For `COc1cc(Nc2ncc3c(n2)-c2ccc(Cl)cc2C(c2c(F)cccc2OC)=NC3)ccc1C(=O)O`, “patients with adverse event” read 21% (item: Pruritus, all grades; cancer patients, phase 1/2; oral, dose not given, together with: pembrolizumab).
`O=C(Nc1nc2cccc(-c3ccc(CN4CCS(=O)(=O)CC4)cc3)n2n1)C1CC1`: “patients with Vascular disorders” 0% (rheumatoid arthritis patients; oral, 100 mg twice daily, 4 weeks, TEAE regardless of relatedness).
Under “patients with grade 3 musculoskeletal disorders”, `CNC(=O)c1cc(Oc2ccc(NC(=O)Nc3cc(C(C)(C)C)nn3-c3ccc4ncccc4c3)c(F)c2)ccn1` is recorded as 28% (patients; oral, dose not given, cycles 1 and 2, High Cmax subgroup).
For `Cc1cc(-c2nnc(N)nc2-c2ccc(F)cc2)cc(Cl)n1`, “patients with immune-mediated AE” read 0% (item: Colitis; IO-naive colorectal cancer patients; oral, dose not given, treatment-related, grade 2).
For `C[C@@H](Nc1cc(F)cc(F)c1)c1cc(C(=O)N(C)C)cc2c(=O)cc(N3CCOCC3)oc12`, “patients discontinuing for AE” read 5% (item: Pyrexia; advanced solid tumour patients; oral, dose not given, dose expansion).
`Cc1cc(NC2CCN(C(=O)OC3CCN(C(=O)/C=C/CN(C)C)C3)CC2)n2ncc(C(C)C)c2n1` (centres unmarked): “patients with Hypomagnesemia” 0% (patients with advanced solid tumours; dose not given, QD arm, grade 3 or higher).
For `CCOc1c([C@H](C)n2nc(C)c3c(N)ncnc32)cc(Cl)c(F)c1[C@@H]1CNC(=O)C1`, the patients was 100% (item: QTcF ≤450 ms; previously treated B-cell malignancy; oral, 20 mg once daily, overall population).
`CNC(=O)c1ccc(-c2cnc3ncc(Cc4ccc5ncccc5c4)n3n2)cc1F` — result for “patients with adverse event”: 18% (item: Anemia, all grades; cancer patients; oral, dose not given, dose escalation, any causality).

For quick reference, copied from above:
`Cc1cc(NC2CCN(C(=O)OC3CCN(C(=O)/C=C/CN(C)C)C3)CC2)n2ncc(C(C)C)c2n1` (centres unmarked): “patients with Hypomagnesemia” 0% (patients with advanced solid tumours; dose not given, QD arm, grade 3 or higher).
